Measurements of several laboratories.
Compare with care: the assays were run in different laboratories.

SMILES | test | system | conditions | pKa
N[C@@H](CC(=O)O)C(=O)OC(C(=O)O)c1ccc(Br)cc1[N+](=O)[O-] (mixture of isomers) | pH-rate profile of hydrolysis, refers to: benzylic carboxylic acid | aqueous buffer, 12.5% DMSO-d6 |  | < 4.2
O=C(O)C1CC2(C1)CC(F)(F)C2 | potentiometric titration | methanol-water | 25 °C, carboxylic acid | 4.3
FC(F)(F)C1(c2ccc(CN3CCN(C(c4ccccc4)c4ccc(Cl)cc4)CC3)cc2)CCC1 (stereo not drawn) | acid-base titration |  |  | 3.52
NS(=O)(=O)c1cc(C(=O)NCCCC(=O)O)c(NC2CCCCC2)cc1Cl |  |  | sulfonamide group | 9.5
Cc1ccc2cc(Cl)cc(O)c2n1 | capillary electrophoresis |  |  | 8.9
O=C(O)C1CC2(CO1)CC(F)(F)C2 (stereo not drawn) | potentiometric titration | methanol-water | 25 °C, carboxylic acid | 3.4
NS(=O)(=O)c1ccc(C(=O)Cn2cnc3ccccc32)cc1 |  |  | sulfonamide group | 8.84
c1cc2nc(c1)CSCc1cccc(n1)CSC2 |  | 0.1 M NaCl | 25 °C, HL+ deprotonation | 5.47
NCC1CC2(CO1)CC(F)(F)C2 (stereo not drawn) | potentiometric titration | methanol-water | 25 °C, amine hydrochloride | 9.2
O=C(NC[C@@H](Cc1ccc(F)cc1)N1CCC(O)(C(F)(F)F)CC1)C1(c2ccc(Cl)cc2)CCCC1 | UV-metric |  |  | 5.89
Cc1ccc2ccc(Cl)c(O)c2n1 | capillary electrophoresis |  |  | 8.65
COCCNC(=O)c1cc(S(N)(=O)=O)c(Cl)cc1NC1CCCCC1 |  |  | sulfonamide group | 9.5
NCC1CC2(CCC2)C1 | potentiometric titration | methanol-water | 25 °C, amine hydrochloride | 10.6
COc1ccc(O)c2nc(C)ccc12 | capillary electrophoresis |  |  | 10.6
NS(=O)(=O)c1cc(-c2ccccc2)cc(-c2ccccc2)c1 |  |  | sulfonamide group | 10.4
O=C(NC[C@@H](Cc1ccccc1)N1CCC(O)(C(F)(F)F)CC1)C1(c2ccc(Cl)cc2)CCCC1 | UV-metric |  |  | 6.09
O=C(O)C1CC2(CC2)CO1 (stereo not drawn) | potentiometric titration | methanol-water | 25 °C, carboxylic acid | 3.5
CC(C)(C)N1Cc2cccc(n2)CN(C(C)(C)C)Cc2cc(-c3nc4ccccc4s3)cc(n2)C1 |  | 0.1 M NaCl | 25 °C, HL+ deprotonation | 10.1
Cc1ccc2c(Br)ccc(O)c2n1 | capillary electrophoresis |  |  | 9.2
c1cc2nc(c1)CSCc1cc(-c3nc4ccccc4s3)cc(n1)CSC2 |  | 0.1 M NaCl | 25 °C, H2L2+ deprotonation | 4.1
Cc1ccc2ccc(Br)c(O)c2n1 | capillary electrophoresis |  |  | 8.6
NS(=O)(=O)c1c(F)c(F)c(S(=O)(=O)CCc2ccccc2)c(N[C@H]2CCc3ccccc32)c1F |  |  | sulfonamide group | 7.87
O=C(O)c1cccnc1Nc1cccc(C(F)(F)F)c1 |  |  | basic | < 2
NS(=O)(=O)c1c(F)c(F)c(S(=O)(=O)CCc2ccccc2)c(NC2CCCCCCCCCCC2)c1F |  |  | sulfonamide group | 7.87
Cc1ccc2cc(C#N)cc(O)c2n1 | capillary electrophoresis |  |  | 8.6
Cc1cc(S(N)(=O)=O)c(Cl)cc1NC1CCCCC1 |  |  | sulfonamide group | 9.82
Cc1ccc2cc(Br)cc(O)c2n1 | capillary electrophoresis |  |  | 9.1
O=C(O)C1CC2(CC2)C1 | potentiometric titration | methanol-water | 25 °C, carboxylic acid | 4.6
Cc1ccc2cc([N+](=O)[O-])cc(O)c2n1 | capillary electrophoresis |  |  | 8.3
COC(=O)CCCNC(=O)c1cc(S(N)(=O)=O)c(Cl)cc1NC1CCCCC1 |  |  | sulfonamide group | 9.5
